Experimental data collected from several papers.
A part holds a random share of what one study measured.

Sample 1 — method: competition protein-binding microarray; molecule type: double-stranded DNA, one strand shown; sample: in vitro; tested at: 2 µM; added: Cbf1 competitor, 0.05 µM; direction: higher = stronger binding; endpoint: fluorescence intensity; constant ends, left off below: … GTCTTGATTCGCTTGACGCTGCTG
Target: Phosphate system positive regulatory protein PHO4, full length, GST-tagged (PHO4, Saccharomyces cerevisiae, UniProt P07270, residues 1-312)
Setting: whole 60-bp probe, lowest competitor level
Target sequence (chain): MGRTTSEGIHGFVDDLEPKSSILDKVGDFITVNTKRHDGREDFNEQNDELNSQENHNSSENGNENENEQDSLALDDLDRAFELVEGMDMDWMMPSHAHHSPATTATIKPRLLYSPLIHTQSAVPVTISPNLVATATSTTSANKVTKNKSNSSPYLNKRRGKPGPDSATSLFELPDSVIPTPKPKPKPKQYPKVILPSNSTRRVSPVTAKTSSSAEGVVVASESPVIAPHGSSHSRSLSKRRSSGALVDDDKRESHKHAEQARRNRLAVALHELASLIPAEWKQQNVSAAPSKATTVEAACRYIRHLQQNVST
Sequence = GTCTTGTCTCATTTGCACGTGTTTTTCCCCACTTCA; value = 18400 a.u.
Sequence = AAAGCGGTAATTTTTCACGTGTGCTCACATATCTAT; value = 12400 a.u.
Sequence = CGTCCTAGTGATTGGGGTGTGGGTGCCATGAGGAAG; value = 8530 a.u.
Sequence = TTGCAGCTGTTGGCGCGCGTGGTGATGCTGACGTTC; value = 10100 a.u.
Sequence = CGGGGTTAAGTTTGTCACGTAACTTGCTTGCAGCAG; value = 4230 a.u.
Sequence = GTCTTGTCTCATTTTCACGTGCATTTCCCCACTTCA; value = 14100 a.u.
Sequence = CTAACGAAGGTTTGAATTGTGGGTGACAAGCCAAGT; value = 3900 a.u.
Sequence = CTTGTTTGGCTTGCTCACATGGGGCTACAGGTAAAA; value = 8360 a.u.
Sequence = GGGTTGAACGACCGTCACATGTGTGCGGATGTAGTT; value = 9920 a.u.
Sequence = TGCGCAACAACTTGCGCGGTGGGTGTATGTCTAGAA; value = 4310 a.u.
Sequence = CAACCGCGTCGGCCCAACCTGATCTTGCAATTAGCA; value = 2820 a.u.
Sequence = ACCATATTGATTTCGCATGTGTCTCTGGTTCATCGG; value = 10500 a.u.
Sequence = CTAACGAAGGTTTGATGTGTGGGTGACAAGCCAAGT; value = 5460 a.u.
Sequence = TGCGCAACAACTTGTTATGTGGGTGTATGTCTAGAA; value = 4810 a.u.
Sequence = TGTTGCCAACCATGCTGCGTGCCGAATTAGGCCTAT; value = 8220 a.u.
Sequence = CGGGGTTAAGTTTGTCACCACACTTGCTTGCAGCAG; value = 4290 a.u.
Sequence = CGTCCTAGTGATTGTCACTTGACTTCCATGAGGAAG; value = 4010 a.u.
Sequence = CTTTCCCGATCTTGAGGTGTGGGTGTAGCACATTTG; value = 5880 a.u.
Sequence = GTAACTTTACCGTCCCACGTGTCCAAAGGTACGCTG; value = 19200 a.u.
Sequence = CCATTGGAAACAGTGCTCGTGCATCTTGATGTTATT; value = 10200 a.u.
Sequence = CTGGAACTAGATCGGCACGCAACTTTTGTGGGCGAG; value = 6740 a.u.
Sequence = TCATGATTGTCTTGATGTGCTTTGCCGGGCTATACA; value = 3650 a.u.
Sequence = TTGTCCTCGATACGGCATGCGTATAAAGAGATATAA; value = 8070 a.u.

Sample 2 — method: RNA Bind-n-Seq; molecule type: RNA; sample: in vitro; tested at: 200 nM; setting: whole 134-nt RNA, ends assumed; added: 150 mM LiCl; relative to: input library; direction: higher = stronger binding; endpoint: log2 enrichment; each molecule: 7-deaza-guanosine replaces G
Target: Fragile X messenger ribonucleoprotein 1, C-terminal low-complexity region (Fmr1, Mus musculus, UniProt P35922)
Constant ends, left off below: GGGAGUUCUACAGUCCGACGAUC … UGGAAUUCUCGGGUGUCAAGG
Sequence = CUCAAGUCCUGUGCUACACAUCGUAUGUACCGAAUCGGUGGUUUUUUUGGUGGAAAGUAUUAUGUUACGCCGUUCGGAUCUGCACUUCCA; value = 1.13
Sequence = CCUGUGCUACACAUCGUAUGUACCGAAUCAAAUUUUUUUAAACCCCCAAACCCCCCCAAAAAAGUAUUAUGUUACGCCGUUCGGAUCUGC; value = 1.39
Sequence = UCCUGUGCUACACAUCGUAUGUACCGAAUCGGGGUUUGGGGUUUUUUUGGGGAAAGGGGAAAGUAUUAUGUUACGCCGUUCGGAUCUGCA; value = -0.425
Sequence = UCCUGUGCUACACAUCGUAUGUACCGAAUCGGGGAAAAAAAGGGGUUUGGGGAAAGGGGAAAGUAUUAUGUUACGCCGUUCGGAUCUGCA; value = -1.47
Sequence = CACAGACAACACGCACCCACACAGACACAGAGGGAAGGAGUUGGGAUGGGGACAGGGUGCACAGCAGGGCGGGGUAGGACCCCAGCCCCU; value = -0.708
Sequence = UGGGAGGUGGAUUUUGGUUAUUUUUUUAGCUCAUUUCCAGGGGUGGGAAUUUUUUUUUAAUAUGUGUCAUGAAUAAAGUUGUUUUUGAAA; value = 0.364
Sequence = AAGUCCUGUGCUACACAUCGUAUGUACCGAAUCGGAAAAGGGGAAAAGGGAAAAGGGAAAGUAUUAUGUUACGCCGUUCGGAUCUGCACU; value = 0.217
Sequence = UAAUUUAGAUCUUAAAGAAAAAGUGGAGCCUGAGGUUCUCAGCACUGAUACCCAAACUUCCCCAGAGCCAGGCACAAGGAUGAACAUUCU; value = 0.742
Sequence = UGGAGAAGCGCUACCUGGCUGCUCAGCGUGAGGCAACAUCCAUCCAUGACCUCAAUGACAAGCUGGAGAAUGAGCUGGCCAACAAGGAGU; value = -0.442
Sequence = UUCCUCAAGUCCUGUGCUACACAUCGUAUGUACCGAAUCGGGCGGCGGCGGAAAGUAUUAUGUUACGCCGUUCGGAUCUGCACUUCCAGC; value = 0.801
Sequence = UCCUGUGCUACACAUCGUAUGUACCGAAUCGGGGUUUGGGGAAAAAAAGGGGAAAGGGGAAAGUAUUAUGUUACGCCGUUCGGAUCUGCA; value = -0.544

Sample 3 — method: RNA Bind-n-Seq; molecule type: RNA; sample: in vitro; tested at: 365 nM; relative to: no-protein control; direction: higher = stronger binding; endpoint: RBNS enrichment (R)
Target: RNA binding protein fox-1 homolog 2, RRM domain, GST-SBP tag (RBFOX2, Homo sapiens, UniProt O43251-10, residues 100-194)
Setting: natural RNA segment, single round, ends assumed
Constant ends, left off below: GGGAGUUCUACAGUCCGACGAUC … UGGAAUUCUCGGGUGCCAA
Construct (chain): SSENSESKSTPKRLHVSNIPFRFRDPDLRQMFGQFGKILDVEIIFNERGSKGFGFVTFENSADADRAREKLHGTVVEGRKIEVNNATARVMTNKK
Sequence = ACACCGAAUGAAUGCAUCUCUGGGAGCUGGCACCACAACCCUGAUGUAUAGGCUGUGUUGGUUUAUGGAGACAAGUUGCAUCAAUGAAUUCACCUAGCAUAGGCUCUUUG; value = 1.17
Sequence = UUUUUAAUUGCUGUUUUCGUUGCUGCAGUACUUUACAAACUUCUAGUUCGUUGAGACUUAGUGACCAUUUGGCAUCAAGUUAACAUCACACAAUAGGAAACACCACUUCC; value = 0.355
Sequence = UUUGAAAUUGGGAAGAAGUGUGACAGGAUACAGUUGGGCUAAUUAUGCAAUAUUUCAUCUGUUUAAUUUUCUAACUCUGUAUUGUUCCUAAAGACGGAUGAAUGAGUCUC; value = 0.89
Sequence = UUGGAAUGAAGGCUGCAGGCACUGGUUGCAGACGUCUUUAUAGGCAGUCACCAUGUUGUCAAACCUUAAUAAUGCACCUCAUGUAUUAGUCACAAUAAAAAUCAGAACUC; value = 0.378
Sequence = AGCUAGCACUGUCUGGAAUGGCCUGUGUUGUAAGUGUCUUGGCCUCUAGGGAAGGUUUGUGCUGGCCUCAGGAGACUGUCUCAUGAGCAGGGAAGUGUUGUGGCCGGCUG; value = 1.9
Sequence = CAAGGCCAUACCUGCCUAGCCCUUUGGCUCCAUCCUGUGGAUGCCCACUCACCCCUCAGACUCCUGCUGCCCAUGCUGUGGCCGGACUUGUCAGCAGGGGGCCUGGUGGG; value = 0.287
Sequence = AAGUGCCUUAAUAGUAGGGUAAGUUGUUAAGAGUGGGGGAGAGCAGGCUGGCAGCUCUCCAGUCAGGAGGCAUAGUUUUUACUGAACAAUCAAAGCACUUGGACUCUUGC; value = 0.659
Sequence = UCUUUGGGAACUGUCCUCUUGGUGGAUCCGGGUUCCUGACCCCACCUCCCCCCAGUUGCCCCUCAGUCGAAGCACUGUGCCAUGUCCUGCUGGGAAUUUUCUGCCAUGCA; value = 0.378
Sequence = AAUUGUUGUCUUAACUAUGACUAGACAUGUUAUACAGCCAUUUAUCUUGUACAACUGAGAAGAAUCAUACUUUGACCUACCUUGUAGAGAUGUGAGGAUUUAGAUGUUUG; value = 0.815
Sequence = AUGAAAUUCAAAAUCUUAUUUUCUAAGGUCAGUGUGCAUUUGUUUAGUUUUGAUGCUUUUCAAAUUACAUUAUUUUCCUCCCCUAUGAACAUUGUGGGGAGGGACUCUAA; value = 0.323
Sequence = UACUCUGGAAAGUGUGGGGAUGGAGAGGAUGGUGCAUUUCCAGUGCUUCCUUACCUGUCAAUAACAAUGGUGGCCACCUGGGUCCCAGCACUUGGCUGGUGGAGAGAUUU; value = 0.39
Sequence = GUCCUUGCUGGGAUUUCCUUUUGGGAACCUGACUUUCCGACUCCAGAUCCUGCUGUCUGGAUCAGUGUUCUGGCUGGAGGUGCUGGAUUCUCUGAUUUUGCCUCCUCACU; value = 0.359

Sample 4 — method: protein binding microarray; molecule type: double-stranded DNA, one strand shown; sample: in vitro; tested at: not given; relative to: not given; direction: higher = stronger binding; endpoint: E-score
Target: Histone acetyltransferase KAT6A, both winged helices, GST fusion (KAT6A, Homo sapiens, UniProt Q92794, residues 1-181)
Setting: 8-mer, flanks averaged, mean of 2 arrays, mostly near background
Residues (chain): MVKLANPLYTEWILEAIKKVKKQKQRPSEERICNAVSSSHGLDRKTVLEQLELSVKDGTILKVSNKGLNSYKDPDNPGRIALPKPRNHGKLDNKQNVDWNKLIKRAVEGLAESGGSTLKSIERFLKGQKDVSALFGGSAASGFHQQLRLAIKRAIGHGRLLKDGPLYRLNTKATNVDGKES
Sequence = CGATCTCC; value = -0.0332
Sequence = AAACGTAT; value = 0.0485
Sequence = CTAGGGAG; value = -0.176
Sequence = AATGGTTG; value = -0.0141
Sequence = ACTGCGGA; value = 0.243
Sequence = GAAGCGTA; value = 0.183
Sequence = AGTAGAGG; value = -0.273
Sequence = ACGACTTC; value = 0.00505
Sequence = GCAATTGA; value = 0.0589
Sequence = CCTTGTAG; value = -0.0583
Sequence = GGCTCCGA; value = -0.0257
Sequence = TCCCGCGA; value = 0.314
Sequence = GCTACACA; value = 0.078
Sequence = CACTAAAG; value = -0.187
Sequence = ACCCAGTC; value = -0.159
Sequence = CAAATATA; value = -0.153
Sequence = CACATCTA; value = -0.0734
Sequence = AGTTTTAA; value = -0.0554
Sequence = CGGCCCAG; value = 0.0905
Sequence = AAGTTTTG; value = -0.132
Sequence = CTGGTTTA; value = -0.088

For quick reference, copied from above (sample 4):
Sequence = TCCCGCGA; value = 0.314
Sequence = GCTACACA; value = 0.078
Sequence = CACTAAAG; value = -0.187
Sequence = ACCCAGTC; value = -0.159
Sequence = CAAATATA; value = -0.153
